Measured values collected from several papers.
Numbered parts are unrelated; each lists some results of a single study.

Series 1 — method: RNA Bind-n-Seq; form: RNA; medium: in vitro; tested at: 365 nM; baseline: no-protein control; direction: higher = stronger binding
Target: RNA binding protein fox-1 homolog 2, RRM domain, GST-SBP tag (RBFOX2, Homo sapiens, UniProt O43251-10, residues 100-194)
Notes: natural RNA segment, single round, ends assumed
Constant ends, left off below: GGGAGUUCUACAGUCCGACGAUC … UGGAAUUCUCGGGUGCCAA
Target sequence (chain): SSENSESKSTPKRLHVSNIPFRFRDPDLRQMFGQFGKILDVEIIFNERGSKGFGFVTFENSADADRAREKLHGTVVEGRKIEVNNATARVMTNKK
`UAAAUUUGCAAUUAUUCUAAUUUGAUAUAGAGAGAAACUGACCUAUUUAACAAAUGGACUCUCUUAAUUCUACUGGACCCAGGCCUUGAACUUUCUGGUUUCUGUCUCUG`: “RBNS enrichment (R)” 0.437.
Under “RBNS enrichment (R)”, `CUUUCCAAAUGAAUGUGAGGAGUUGCUUUCACUUCAAGACUGUCCUUCUUUUCAGUAAAACUUUAGGAGAUGUUAUGGGGAAAGGGAGGGAACAGAAAUCCUUGAACUUU` is recorded as 0.612.
`UCUCCUGACCCGUGGUGUUGCAGUCUGUUGUCACCAGCCUUGUUUUAGUGUGUAUAUAUGUCGCCCCUGUGAUGCAUAUAUACACAGGUAUUAAAUAUAUCGCUCUAUAU`: “RBNS enrichment (R)” 0.573.
Under “RBNS enrichment (R)”, `UUGUCAACACAACACUUUGUCCCCGCUCCGGGAGAUGAGUCAGAUGGUGGCUUGAGUUGUCACUUGGUCCCCUCCGCCCCUCGGGUGGCCCCCUUUGCCACGUCCCCUUA` is recorded as 0.294.
`GGGGUAGGGCAGCCUAGCUCUUUUUGUCACCUUGCCCCGAGCCCUCUUCAGUCUUCCUGUUCACCCCUCCUCCACUCCCUUUAACCGCAAAACUAGGUGCUGUGGCCCCA` — result for “RBNS enrichment (R)”: 0.948.
`AGCUCAGUGCCAACUAAAACAAAGCACAAAGUUCUCAGAGCUCUUGAGGAAAUGGUUGUCUCCCUGUCCCCAGGCAGGCCUCUUCCCCUCCCUGUCCUGUAAAUAUCCCU` — result for “RBNS enrichment (R)”: 0.368.
`CCCAACACCUGCACUGGGCCAUCUAUGGGAAAGAACACGGGUCGAGUGCAGUCGAGUUGUCUGGCCAUCUGUAUUUGGAUCUAUAACUGUACUUUGCCUGGCGCUGUGCG` — result for “RBNS enrichment (R)”: 1.09.
Under “RBNS enrichment (R)”, `GGAUUAUAUUUUUGGGUUUUGUAGAAUAUUGCAAAUUAACCACACAAAAAAUGUUUAAUUUAUGCAACAAGCAUGUUUGUGCAAAUUUCAUGGGACUUUAAAAAGAAUAA` is recorded as 12.1.

Series 2 — method: competition protein-binding microarray; form: double-stranded DNA, one strand shown; medium: in vitro; tested at: 2 µM; together with: Cbf1 competitor, 0.05 µM; direction: higher = stronger binding; constant ends, left off below: … GTCTTGATTCGCTTGACGCTGCTG
Target: Phosphate system positive regulatory protein PHO4, full length, GST-tagged (PHO4, Saccharomyces cerevisiae, UniProt P07270, residues 1-312)
Notes: whole 60-bp probe, lowest competitor level
Residues (chain): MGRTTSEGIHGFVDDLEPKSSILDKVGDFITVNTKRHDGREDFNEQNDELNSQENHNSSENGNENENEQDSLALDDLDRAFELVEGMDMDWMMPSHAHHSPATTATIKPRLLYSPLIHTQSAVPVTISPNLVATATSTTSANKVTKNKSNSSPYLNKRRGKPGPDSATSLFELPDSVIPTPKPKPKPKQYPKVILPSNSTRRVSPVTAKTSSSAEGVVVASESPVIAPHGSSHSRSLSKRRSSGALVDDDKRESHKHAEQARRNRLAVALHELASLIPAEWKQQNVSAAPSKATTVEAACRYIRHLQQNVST
The fluorescence intensity of `CCAAAAAGCCTCCGTCACGTGGTCGCTTGCGCTTAT` is reported as 17300 a.u.
The fluorescence intensity of `ACCCTCTTGGCCATTCGCGTGCGGATTGATTGCCGG` is reported as 8070 a.u.
With `GGAGATGCCAGAAAAAGCGTGGGTACTGGTCTGGTT` the fluorescence intensity was 8530 a.u.
`CGGGGTTAAGTTTGTGGAGTGGGTGGCTTGCAGCAG` gave a fluorescence intensity of 4400 a.u.
`AAAGCGGTAATTTTTCACGTGTTTTCACATATCTAT` gave a fluorescence intensity of 14100 a.u.
`CATACCCAACCTTGTCACCGGACTTAAGATATTTGT` gave a fluorescence intensity of 3440 a.u.
`ACCGTCGAGCCTCACATCGTGGTCGGGAGAGACTCT` has a fluorescence intensity of 8810 a.u.
The fluorescence intensity of `ATTAGTTCTGGTGCCATCGTGTCGGCTTTACCACAA` is reported as 7930 a.u.
`AAAGCGGTAATTTGAGGAGTGGGTGCAGATATCTAT` has a fluorescence intensity of 5170 a.u.
For `AAAGCGGTAATTTAACACGTGTTTTCACATATCTAT`, the fluorescence intensity was 21300 a.u.
With `GGTGGAAATAACAAAAGCGTGACGGCAAAGAAGCAA` the fluorescence intensity was 7440 a.u.
`GTATTAGGTTGTCTGATCATGACGCTGTCCCCTACG` gave a fluorescence intensity of 4630 a.u.
With `GGGTCATTTCTCTTTACTGAATATTATGAACGAGTT` the fluorescence intensity was 4020 a.u.
For `TGCTCTCCCCCCTTCCTCGTGCTTTGCGACTGTTTA`, the fluorescence intensity was 9140 a.u.
For `CTCTGCGGTGGCAGCAACGTGACGGTATAGTGTGTA`, the fluorescence intensity was 12700 a.u.
With `CGTCCTAGTGATTTTCACGTGAATTCCATGAGGAAG` the fluorescence intensity was 8460 a.u.
`GTCTTGTCTCATTTTCACGTGCGTTTCCCCACTTCA` gave a fluorescence intensity of 14400 a.u.
The fluorescence intensity of `AAAGCGGTAATTTTTCACGTGCTATCAAATATCTAT` is reported as 14000 a.u.
The fluorescence intensity of `CTTCTGTAAATTTGAGCAGTGGGTGGACGCGCCCCG` is reported as 4220 a.u.

Series 3 — method: protein-binding microarray; form: double-stranded DNA, one strand shown; medium: in vitro; tested at: 250 nM; notes: 60-bp whole probe; together with: salmon DNA 0.4 mg/ml; baseline: random background probes; direction: higher = stronger binding; constant ends, left off below: GCCTAGCAC … GTCTTGATTCGCTTGACGCTGCTG
Target: Interferon regulatory factor 5, full length, phosphomimetic (IRF5, Homo sapiens, UniProt Q13568-2, residues 1-514, K96S/S451D/S453D/S456D/S462D)
The log fluorescence of `TTAGGTATCGACACTGGGTTGGTGCTA` is reported as 2.27 z-score.
With `TTAGGTCTCCTTCGCCTTTAGTGCTAG` the log fluorescence was 0.266 z-score.
`GACGGTCTCCTTCTCCTAACGTGCTAG` gave a log fluorescence of 0.207 z-score.
For `GACGATTGCGGGACTGGAGACGTGCTA`, the log fluorescence was -0.608 z-score.
For `GACGATATCAGCCTGGAGACGTGCTAG`, the log fluorescence was 0.338 z-score.
With `TTAGGACTCGGGACTGGGTTAGTGCTA` the log fluorescence was -0.454 z-score.
For `TCAGAACTGAGACTGGATTAGTGCTAG`, the log fluorescence was -0.0528 z-score.
With `CTAGAACTGAGTTTCGATTAGTGCTAG` the log fluorescence was 9.36 z-score.
With `TTAGGACTGGGTATGGGTTAGTGCTAG` the log fluorescence was -0.513 z-score.
`GACCTCGTCTCTATCAAAAAGTGCTAG` gave a log fluorescence of -0.00827 z-score.
For `GACGAACTGGCGACTGGAGACGTGCTA`, the log fluorescence was -0.525 z-score.
For `GACGATTTCGGGCTTCGAGACGTGCTA`, the log fluorescence was 1.79 z-score.
The log fluorescence of `GACGATTTCACACTGGAGACGTGCTAG` is reported as 0.53 z-score.
`GACGGTCTCGGTTTTGGGACGTGCTAG` gave a log fluorescence of 0.572 z-score.
`TTAGATTTCTGTATCGATTAGTGCTAG` has a log fluorescence of 7.37 z-score.
`ATGTTTTTCATTTTTTTTCAGTGCTAG` gave a log fluorescence of 2.34 z-score.
With `GACGGTCTCCTTCTCCTCACGTGCTAG` the log fluorescence was -0.163 z-score.
`GTAGAACTGAGTATCGATTAGTGCTAG` gave a log fluorescence of 6.64 z-score.
With `TCTCCTTTCCAAATACCCTCGTGCTAG` the log fluorescence was 0.883 z-score.

Series 4 — method: protein binding microarray; form: double-stranded DNA, one strand shown; medium: in vitro; tested at: not given; baseline: not given; direction: higher = stronger binding
Target: Histone acetyltransferase KAT6A, winged helix 1, GST fusion (KAT6A, Homo sapiens, UniProt Q92794, residues 1-85)
Notes: 8-mer, flanks averaged, mean of 2 arrays, mostly near background
Construct (chain): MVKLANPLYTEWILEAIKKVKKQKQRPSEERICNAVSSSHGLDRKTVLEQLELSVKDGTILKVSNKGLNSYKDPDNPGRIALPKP
`AAAGGATG` has an E-score of -0.169.
`GGTCGCAA` gave an E-score of 0.126.
The E-score of `ATATGCTA` is reported as -0.0808.
For `CTGTGCCA`, the E-score was -0.155.
`AGAATTAG` gave an E-score of -0.226.
With `ACAGCGTA` the E-score was 0.0891.
With `AACACGTT` the E-score was -0.102.
`ATCCAGCC` gave an E-score of -0.1.
For `GATTTGAC`, the E-score was 0.0345.
The E-score of `AAGAAAGA` is reported as -0.172.
`CCCGGATA` has an E-score of 0.135.
`CAAACGAG` has an E-score of -0.0664.
For `CTATCCGC`, the E-score was 0.339.
The E-score of `CAGGCGGA` is reported as 0.182.
`AAGATTGC` has an E-score of -0.00169.
`CCCCGTAG` gave an E-score of 0.247.
`ATACTTGC` has an E-score of 0.099.
With `AGCGTGTG` the E-score was 0.111.
`ATCCCCTA` gave an E-score of -0.183.
`AGCGTAAC` gave an E-score of 0.163.
For `AGGGCGGG`, the E-score was 0.309.

Excerpt of the above (series 4):
`AGCGTAAC` gave an E-score of 0.163.
`CAAACGAG` has an E-score of -0.0664.
The E-score of `CAGGCGGA` is reported as 0.182.
With `ACAGCGTA` the E-score was 0.0891.
`ATCCAGCC` gave an E-score of -0.1.
